Results of several laboratories.
Each line is one published result; not all experiments were run side by side. ± marks the error that the study gave.
Organism: Trypanosoma cruzi

The IC50 of COc1ccc(C[C@H](N)C(=O)N[C@H]2[C@@H](O)[C@H](n3cnc4c(N(C)C)ncnc43)O[C@@H]2CO)cc1 is reported as 0.44 ± 0.63 µM (PrestoBlue; trypomastigote; 48 h, solid sample).
The IC50 of O=C(Cn1ccnc1[N+](=O)[O-])NCc1ccccc1 is reported as 2.67 µM (parasite growth; mouse Macrophage; 24 h, intracellular, amastigote).
O=[N+]([O-])c1nccn1CCCN1CCN(Cc2ccc(C(F)(F)F)cc2)CC1 has an IC50 of 4 to 60 µM (growth; L6 myoblasts, Tulahuen C4; intracellular amastigotes).
With COc1ccc(Oc2ccc(OCCSC#N)cc2)cc1 the IC50 was 6.1 µM (parasite growth; Vero; 72 h, intracellular, amastigote).
O=[N+]([O-])c1ccc(/C=N/N=C/c2ccccc2)s1 gave an IC50 of < 2.5 µM (parasite growth, resazurin; trypomastigote).
For COc1cc(C(=O)N2CCN(Cc3ccccc3)CC2)ccc1O, the IC50 was 35.9 µM (parasite growth; mouse Peritoneal macrophage; 48 h, intracellular, amastigote).
For COc1ccc(C)c2sc(N(Cc3cccnc3)C(=O)c3ccc(C#N)cc3)nc12, the IC50 was 2.32 ± 0.66 µM (imaging; 3T3 fibroblasts, Tulahuen amastigote; 48 h).
For O=[N+]([O-])c1nccn1CCCNCc1ccc2cc(Br)ccc2n1, the IC50 was 4 to 60 µM (growth; L6 myoblasts, Tulahuen C4; intracellular amastigotes).
O=C(Cn1ccnc1[N+](=O)[O-])NCc1ccccc1 gave an IC50 of 2.5 ± 1.4 µM (growth; cardiomyocytes, Y, amastigote; 72 h, with: heme 30 µM).
COc1ccc(/C=C/C(=O)N2CCN(Cc3ccccc3)CC2)cc1 has an IC50 of 28.6 µM (parasite growth; mouse Peritoneal macrophage; 48 h, intracellular, amastigote).
For CC[C@@H]([C@H](C)O)n1ncn(-c2ccc(N3CCN(c4ccc(OC[C@@H]5CO[C@@](Cn6cncn6)(c6ccc(F)cc6F)C5)cc4)CC3)cc2)c1=O, the IC50 was 5.43 µM (parasite growth, resazurin; 48 h, epimastigote).
For O=[N+]([O-])c1nccn1CCCCNc1nc(-c2ccccc2)nc(Cl)c1-c1ccccc1, the IC50 was 4 to 60 µM (growth; L6 myoblasts, Tulahuen C4; intracellular amastigotes).
For c1cncc(Oc2ccc(OCCOC3CCCCO3)cc2)c1 (centres unmarked), the IC50 was > 10 µM (parasite growth; Vero; 72 h, intracellular, amastigote).
O=C(NC(c1ccccc1)c1ccc2cccnc2c1O)c1ccccc1 (centres unmarked) gave an IC50 of 1.42 ± 0.99 µM (imaging; 3T3 fibroblasts, Tulahuen amastigote; 48 h).
Cc1cc(O)c2c(c1)C(=O)c1cc(O)cc(O)c1C2=O has an IC50 of 0.7 µM (parasite release from CHO cells; serum-free host culture).
COc1ccccc1N1CCN(C(CNS(=O)(=O)c2ccc(Cl)cc2)c2cccnc2)CC1 (centres unmarked) has an IC50 of 1.73 ± 0.19 µM (imaging; 3T3 fibroblasts, Tulahuen amastigote; 48 h).
With O=[N+]([O-])c1nccn1CCCN(Cc1ccc2cc(Br)ccc2n1)Cc1ccc2cc(Br)ccc2n1 the IC50 was 4 to 60 µM (growth; L6 myoblasts, Tulahuen C4; intracellular amastigotes).
With O=C(Nc1nc(-c2ccccn2)cs1)c1ccccc1Br the IC50 was 1.29 ± 0.13 µM (imaging; 3T3 fibroblasts, Tulahuen amastigote; 48 h).
For Cc1cc(NCCCCn2ccnc2[N+](=O)[O-])nc(N)n1, the IC50 was 4 to 60 µM (growth; L6 myoblasts, Tulahuen C4; intracellular amastigotes).
The IC50 of O=C(c1ccc(Cl)cc1)N1CCN(Cc2ccccc2)CC1 is reported as > 60 µM (parasite growth; mouse Peritoneal macrophage; 48 h, intracellular, amastigote).
The IC50 of O=[N+]([O-])c1cccc(Oc2ccc(OCCOC3CCCCO3)cc2)c1 (centres unmarked) is reported as > 10 µM (parasite growth; Vero; 72 h, intracellular, amastigote).
Cc1cc(C2CCCCC2)n(O)c(=O)c1 gave an IC50 of 1 ± 0.49 µM (PrestoBlue; trypomastigote; 48 h, solid sample retest).
For COc1ccc(C(=O)N2CCC(Cc3ccccc3)CC2)cc1, the IC50 was > 60 µM (parasite growth; mouse Peritoneal macrophage; 48 h, intracellular, amastigote).
